Results pooled from the literature.
Protocols differ between the studies behind these lines. Numbers after ± are the reported error.

`neuropeptide Y` — result for “cumulative testosterone release”: 22.7 ± 3.15 ng/mL (rat, plasma; intratesticular, 1 µg/kg, added: hCG).
Under “mean difference vs placebo”, O=C(Nc1ccccc1)C1CCN(C(=O)Oc2cccnc2)CC1 is recorded as -2.24 µV (LEP N2-P2 amplitude; healthy women, capsaicin responders, capsaicin-treated skin; 100 mg, day 21; reference: placebo day 21).
COC[C@@H](NC(C)=O)C(=O)NCc1ccc(-c2cccc(F)c2)cc1 — result for “paw withdrawal threshold”: 40 ± 4.9 mN (von Frey; Sprague-Dawley rat, tibial nerve injury; ip, 10 mg/kg, 14 days after injury).
For C#CCN(C)CCCOc1ccc(Cl)cc1Cl.Cl, startle magnitude read “no effect” (acoustic startle; Sprague-Dawley rat; subcutaneous, 0.3 mg/kg; reference: vehicle).
CC1(C)CC(O)CC(C)(C)N1[O] — result for ROS chemiluminescence: “decreased” (refers to: luminol signal; C57BL/6 mice, carrageenan footpad inflammation; iv, 5 mg/kg, 15 min before luminol).
Cc1cc(O)cc(C)c1C[C@H](N)C(=O)N[C@@H]1CCNc2ccc(CC3Cc4ccccc4C3)cc21: antinociception “inactive” (warm water tail withdrawal; C57BL/6 mice; intraperitoneal, up to 10 mg/kg cumulative).
The AD50 of CCC[C@@H]1NC(C)(C)CO[C@@]1(O)c1cccc(Cl)c1 is reported as 0.004 mg/kg (nicotine antinociception blockade, antagonist, tail-flick test; mouse; 15 min pretreatment, added: nicotine 2.5 mg/kg subcutaneous).
Under inhibition, [C-]#[O+] is recorded as “no inhibition” (benzocaine metabolism; human erythrocytes in plasma; concentration not given, 37 °C, added: benzocaine 3 µg/mL).
Under “arm entries and open-arm distance”, Oc1cc(Cl)c(-c2cc(Cl)ccc2Cl)cc1Cl is recorded as “no effect” (elevated plus maze; Sprague-Dawley rat; dose not given).
With Cn1cc(C2=C(c3coc4ccc(F)cc34)C(=O)NC2=O)c2cc3c(cc21)OCO3 the tumour weight was 279 ± 91.3 mg (male nude mice 786-O xenograft; intraperitoneal, 20 mg/kg thrice weekly, 4 weeks).
C[C@@H]1NC(C)(C)CO[C@@]1(O)c1cccc(Br)c1 has an AD50 of 1.7 mg/kg (nicotine-induced hypothermia, antagonist; mouse; 15 min pretreatment, added: nicotine 2.5 mg/kg s.c.).
CC(=O)N1CC[C@@H](NC(=O)[C@@H](N)Cc2c(C)cc(O)cc2C)c2cc(Cc3cccc4ccccc34)ccc21: antinociception “inactive” (warm water tail withdrawal; C57BL/6 mice; intraperitoneal, up to 10 mg/kg cumulative).
COc1cc(-c2cc(=O)c3c(O)cc(O)cc3o2)ccc1O gave an IC50 of 87.1 µM (ABTS scavenging, absorbance; 15 min).
Under antinociception, Cc1cc(O)cc(C)c1C[C@H](N)C(=O)N[C@@H]1CCCc2ccc(Cc3cccc4ccccc34)cc21 is recorded as “inactive” (warm water tail withdrawal; C57BL/6 mice; intraperitoneal, up to 10 mg/kg cumulative).
For C(#Cc1cc(C#CCCC[n+]2cccc(-c3ccccc3)c2)c(C#CCCC[n+]2cccc(-c3ccccc3)c2)cc1C#CCCC[n+]1cccc(-c2ccccc2)c1)CCC[n+]1cccc(-c2ccccc2)c1.[Br-].[Br-].[Br-].[Br-], the vocalization threshold was 250 ± 9.69 g (paw pressure test; rat, sham-operated paw; intraperitoneal, 3600 µg/kg, peak effect).
For Oc1ccc2c3c1O[C@H]1c4ncc(-c5ccc(Cl)cc5)cc4C[C@@]4(O)[C@@H](C2)N(CC2CC2)CC[C@]314, plasma corticosterone read “no effect” (rat; intraperitoneal, 5 mg/kg; reference: vehicle).
The fEPSP slope of O=C(c1ccc(F)cc1)N1CCc2nc(COc3ccccc3)oc2C1 is reported as 110 ± 4% (long-term potentiation; rat hippocampal SC-CA1 synapse; 10 µM, 20 min preincubation, 35 min post-TBS, added: threshold theta burst stimulation; reference: baseline).
For Cc1ccc2cc3c(ccc4ccccc43)c3c2c1CC3, the non-protective dose was 0.1 mg (adrenal apoplexy prevention; rat; oral, added: 7,12-DMBA 5 mg i.v.).
The inhibition of C[C@@]12OC(=O)[C@]1([C@@H](O)[C@@H]1C=CCCC1)NC(=O)[C@@H]2CCCl is reported as 60 to 80% (tumour-bearing mice, tumour; intravenous, 0.15 mg/kg twice weekly, three weeks, 3 h after last dose, day 21).
Oc1cc2c(cc1O)C(c1ccccc1)CNCC2 (centres unmarked): “dose for full substitution” 40 mg/kg (cocaine-appropriate responding, drug discrimination; male rats trained on cocaine; intraperitoneal, LMS, added: cocaine 10 mg/kg training dose).
COc1ncc(-c2nc(C(=O)NC(=N)N)c(N)nc2N2CCCCCC2)cn1: sodium excretion “no effect” (Sprague-Dawley rat, urine; iv, 1.5 mg/kg, 6 h, added: acetazolamide 25 mg/kg; reference: acetazolamide alone).
With `ALWKTMLKKLGTMALHAGKAALGAAADTISQGTQ` the terbium leakage was ~80% (peptide, lipid vesicles; 1 µM, 8 h, pH 7.2, peptide to lipid ratio 0.005, added: 300 mM NaCl).
For COC1(C[S@@+]([O-])c2ccccc2)CCN(CCc2c[nH]c3ccc(F)cc23)CC1, “colorectal pressure increase” read “inhibited” (antagonist; anaesthetised minipig; intravenous, 1 mg/kg, 15 min before agonist, added: LMN-NKA 100 µg/kg subcutaneous).
For C=C(C)[C@H]1Cc2c(ccc3c2O[C@@H]2COc4cc(OC)c(OC)cc4[C@@H]2C3=O)O1, “reduction of oxygen consumption” read 75% (complex I-driven respiration; cortical mitochondria, Fischer 344 rat; 10 pM, 16 min; reference: before exposure).
The tracer uptake of CN[C@@](C)(C[18F])C(=O)O is reported as 0.7 %ID/g (A549 tumour model; host not given, blood; 2 h, tumour-bearing).
N=C(N)NC(=O)c1nc(-c2cc3ccccc3o2)c(N2CCCCCC2)nc1N — result for urine volume: “no effect” (Sprague-Dawley rat; iv, 1.5 mg/kg, 6 h, added: acetazolamide 25 mg/kg; reference: acetazolamide alone).
CC(NC(C)(C)C)C(=O)c1cccc(Cl)c1 (centres unmarked) has an AD50 of 1.2 mg/kg (nicotine-induced antinociception, antagonist, tail-flick test; mice; added: nicotine 2.5 mg/kg sc).
The glucosylsphingosine median of CC(C)(NC(=O)O[C@@H]1CN2CCC1CC2)c1csc(-c2ccc(F)cc2)n1 is reported as 14.8 ng/mL (sample A patients, plasma; oral, 15 mg once daily, week 52, added: imiglucerase).
The inhibition of NCC(=O)Nc1cncc(-c2nn3c(=O)cc(N4CCNCC4)nc3s2)c1 is reported as 76% (platelet function, VerifyNow iso-TRAP; human; subcutaneous, 0.11 mg/kg, 15 min).
For Nc1ncnc2c1ncn2[C@@H]1O[C@H](COP(=O)(O)CP(=O)(O)O)[C@@H](O)[C@H]1O, “CD73 release into medium” read “no effect” (dot blot, refers to: soluble CD73; culture medium; range over 1 to 100 µM, 15 min, rat cells).
With CC[C@H](C)[C@H](NC(=O)[C@H](Cc1ccc(O)cc1)NC(=O)[C@@H]1CCCN1C(=O)[C@H](CCCNC(=N)N)NC(=O)[C@H](CCCNC(=N)N)NC(=O)[C@@H]1CCCN1C(=O)[C@H](CCCCN)NC(=O)[C@H](CSC1CC(=O)N(CCNC(=O)CCCCC[N+]2=C(C=CC=CC=C3N(CC)c4ccc5c(S(=O)(=O)O)cc(S(=O)(=O)[O-])cc5c4C3(C)C)C(C)(C)c3c2ccc2c(S(=O)(=O)O)cc(S(=O)(=O)O)cc32)C1=O)NC(=O)CN1CCN(CC(=O)O)CCN(CC(=O)O)CCN(CC(=O)O)CC1)C(=O)N[C@@H](CC(C)C)C(=O)O (some centres unmarked) [copper-64 labelled] the tumour uptake was 0.42 ± 0.05 %ID/g (PET imaging; HT-29 xenograft, male BALB/c nu/nu mice; intravenous, 4 h, added: 100 µg unlabelled neurotensin).
For Cc1sc2c(c1C)C(c1ccc(Cl)cc1)=N[C@@H](CC(=O)OC(C)(C)C)c1nnc(C)n1-2, the median survival was 21 days (mice, HD-MB03 intracranial xenograft; intraperitoneal, 50 mg/kg daily, added: ribociclib 100 mg/kg oral daily).
CCCN1CCC[C@@H]2Cc3n[nH]cc3C[C@H]21 — result for “dose for full substitution”: 0.125 mg/kg (cocaine-appropriate responding, drug discrimination; male rats trained on cocaine; intraperitoneal, LMS, added: cocaine 10 mg/kg training dose).
For CCC1CC(N2CCCCC2)CC(CC)N1C(=O)Oc1c(OC)cc(-c2nc(-c3ccccc3)c(-c3cccs3)[nH]2)cc1OC (centres unmarked), “GFP+ EV release into blood” read “inhibited” (GFAP-EGFP mice, intrastriatal IL-1β; oral, 3 mg/kg DPTIP equivalent, 30 min before IL-1β, read 4 h after, added: IL-1β).
O=c1cc(-c2ccc(O)cc2)oc2cc(O)cc(O)c12 gave an IC50 of 52.9 µM (ABTS scavenging, absorbance; 15 min).

Excerpt of the above:
CC(=O)N1CC[C@@H](NC(=O)[C@@H](N)Cc2c(C)cc(O)cc2C)c2cc(Cc3cccc4ccccc34)ccc21: antinociception “inactive” (warm water tail withdrawal; C57BL/6 mice; intraperitoneal, up to 10 mg/kg cumulative).
For C#CCN(C)CCCOc1ccc(Cl)cc1Cl.Cl, startle magnitude read “no effect” (acoustic startle; Sprague-Dawley rat; subcutaneous, 0.3 mg/kg; reference: vehicle).
With `ALWKTMLKKLGTMALHAGKAALGAAADTISQGTQ` the terbium leakage was ~80% (peptide, lipid vesicles; 1 µM, 8 h, pH 7.2, peptide to lipid ratio 0.005, added: 300 mM NaCl).
For CCC1CC(N2CCCCC2)CC(CC)N1C(=O)Oc1c(OC)cc(-c2nc(-c3ccccc3)c(-c3cccs3)[nH]2)cc1OC (centres unmarked), “GFP+ EV release into blood” read “inhibited” (GFAP-EGFP mice, intrastriatal IL-1β; oral, 3 mg/kg DPTIP equivalent, 30 min before IL-1β, read 4 h after, added: IL-1β).
